Measurements gathered from unrelated publications.
Protocols differ between the studies behind these lines. Values joined by “and” are separate records of one study, mostly repeats; a detail may differ. ± gives the spread as reported.
USP14: Ubiquitin carboxyl-terminal hydrolase 14 (USP14, Homo sapiens, UniProt P54578)
PRKAA1 with beta2, gamma1: 5'-AMP-activated protein kinase catalytic subunit alpha-1, with beta2, gamma1 (PRKAA1, Homo sapiens, UniProt Q13131)
Rac GTPase-activating protein 1: Rac GTPase-activating protein 1 (Homo sapiens, UniProt Q9H0H5)
SIGMAR1: Sigma non-opioid intracellular receptor 1 (SIGMAR1, Homo sapiens, UniProt Q99720)
F12: Coagulation factor XII (F12, Homo sapiens, UniProt P00748)
Rab GDP dissociation inhibitor beta with Rab1A: Rab GDP dissociation inhibitor beta, with Rab1A (Homo sapiens, UniProt P50395)

`O=C1C=CC(=O)C(Sc2nnnn2-c2ccccc2)=C1` has an inhibition of 39% (USP14; enzyme activity, inhibitor; 17 µM).
`COCC(=O)N1CCc2cc(-c3csc(NC(=O)c4cc(OC)cc(OC)c4)n3)ccc21` gave an inhibition of 7% (P2X receptor, rabbit; radioligand binding; 10 µM).
The inhibition of `CN1CCN(Cc2ccc(-c3ccc(CO[C@H]4CCC[C@@H]4NC(=O)c4cc(-c5cnn(C)c5)cnc4N)cc3)cc2)CC1` is reported as 0% (PRKAA1 with beta2, gamma1; SelectScreen kinase profiling; 0.1 µM).
For `Cc1cccc(O[C@H]2CCC[C@@H](C(C)CNCc3ccncc3)C2)c1` (relative stereo), the inhibition was 12% (PI4KB (Homo sapiens, UniProt Q9UBF8); enzyme activity, inhibitor; 10 µM).
With `COc1ccc2c(c1)CCc1sc(N)nc1-2` the inhibition was 87.4% (Rac GTPase-activating protein 1; enzyme activity, inhibitor, ADP detection; 10 µM).
For `CCc1nc2ccc(Cl)cn2c1C(=O)NCc1ccc2oc(-c3ccc(OC(F)(F)F)cc3)nc2c1`, inhibition read “no inhibition” (Cytochrome b, in bc1 complex (COB, Candida albicans, UniProt P0C8L0); cytochrome c reduction; 10 and 1 µM).
`Cc1[nH]nc2c1N=C(c1ccccc1Cl)c1cnc(N3CCOCC3)cc1N2` gave an inhibition of -4% (SIGMAR1; cell-free assay; 10 µM).
`Clc1cccc2c(NCCCN3CCOCC3)cnnc12` has an inhibition of 25% (USP14; enzyme activity, inhibitor; 17 µM).
`N=C(N)NCCCC(NC(=O)C(CC(=O)NO)Cc1ccc2ccccc2c1)C(=O)NC(Cc1c[nH]c2ccccc12)C(=O)NC(CCC(=O)O)C(N)=O` (centres unmarked) gave an inhibition of 14% (Collagenase 3 (MMP13, Homo sapiens, UniProt P45452); 1 µM).
`C[C@H](NC(=O)[C@H](CC(=O)NCC(C)(C)C)NC(=O)C(=O)c1c[nH]c2ccccc12)C(=O)NCc1ccc(F)cc1F` gave an inhibition of 40% (F12; enzyme activity, inhibitor; 100 µM).
`Cc1cc(Cl)cc(-c2ccnc3cc(CN4C(=O)C5C(C4=O)C5(C)C)sc23)c1C[C@@H]1CNCCO1` (some centres unmarked) has an inhibition of 104% and 108% (USP7 (Homo sapiens, UniProt Q93009, V517F); enzyme activity, inhibitor; 5 µM).
`Clc1ccc(NCc2ccc(Br)cc2)cc1` has an inhibition of 74.8% (Rac GTPase-activating protein 1; GAP activity, malachite green phosphate; concentration not given, orthogonal retest).
For `C[Si](C)(C)C[C@H](CN)CC(=O)O`, the inhibition was -9% (GABBR1 (Homo sapiens, UniProt Q9UBS5); binding, radioligand binding; 250 µM, together with: [3H]CGP-54626).
`CC[C@H](C)[C@@H]1NC(=O)[C@H](Cc2ccccc2C(F)(F)F)NC(=O)CCSCc2cccc(n2)CSCCCNC(=O)[C@H](CCCCCC(=O)NO)NC1=O` gave an inhibition of 60% (HDAC7 (Homo sapiens, UniProt Q8WUI4); enzyme activity, inhibitor, fluorogenic; 30 µM).
`CCOC(=O)C1(C)C(Br)=C(Cl)C(=O)N1c1ccc(F)cc1` (centres unmarked) has an inhibition of 66.7% (Rac GTPase-activating protein 1; GAP activity, malachite green phosphate; concentration not given, orthogonal retest).
`COc1ncc2nc(C)n(Cc3ncc(S(N)(=O)=O)cc3F)c2c1-c1ccccc1` gave an inhibition of -1.74% (Glutamate NMDA receptor; GRIN1/GRIN2B (GRIN1/GRIN2B, Homo sapiens, UniProt Q05586+Q13224); antagonist, cell-based; 10 µM).
The inhibition of `C=CC(=O)N1Cc2nc(-c3cc(-c4cc(Cl)cnc4Cl)c(F)cc3F)n(-c3ccncn3)c2C1` is reported as 4.6% (MASTL (Homo sapiens, UniProt Q96GX5); cell-free assay, inhibitor; 1 µM).
The EC50 of `Cc1cc(-c2ccc3ncnc(Nc4ccc(OCc5cccc(F)c5)c(Cl)c4)c3c2)cnc1N1CCOCC1` is reported as 1.1 µM (Leishmania major; intracellular amastigote growth, luciferase; RAW264.7 macrophages).
`CCC(=O)N(C)c1ccc(Cl)c(Cl)c1` gave an inhibition of less than 10% (AVPR1A (Homo sapiens, UniProt P37288); ligand displacement, radioligand; 10 µM).
`O=C1c2ccccc2C(=O)c2c1oc1c3c(ccc21)OCN(C1CCCC1)C3` gave an inhibition of 43% (USP14; enzyme activity, inhibitor; 17 µM).
`O=C(N/N=C/c1cc[n+](CC2CC2)c2ccccc12)c1cc(C(=O)N/N=C/c2cc[n+](CC3CC3)c3ccccc23)ncn1` has a ΔTm of 4.8 ± 0.2 °C (MYC parallel G4 DNA; FRET melting; 1 µM, DNA 0.2 µM, together with: duplex DNA competitor 10 µM).
With `Cc1cc(C)cc(COc2cc3c(cc2OCc2cc(C)cc(C)c2)C2CC(O)CC(C)N2CC3)c1` (centres unmarked) the inhibition was 85.4% (Rab GDP dissociation inhibitor beta with Rab1A; GDI2-Rab1A interaction, NanoLuc complementation; 6.25 µM).
The inhibition of `COc1cc(-c2cn(C)c(=O)c3cnccc23)cc(OC)c1CN(C)C` is reported as 1.07% (EP300 (Homo sapiens, UniProt Q09472); 1 µM).
For `C=CC(=O)Nc1cccc(-c2cnc3[nH]cc(C(=O)NC(C)(C)C)c3n2)c1`, the inhibition was 31% (PRKCG (Homo sapiens, UniProt P05129); enzyme activity, inhibitor; 0.1 µM).
With `COc1ccc(C[C@H](NC(=O)Cc2cccc(Oc3ccccc3)c2)C(=O)N[C@@H](Cc2c[nH]c3ccccc23)C(=O)NCc2ccc(C)cc2)cc1OC` the inhibition was 34% (F12; enzyme activity, inhibitor; 100 µM).
`C/C=C/C(=O)Nc1ccc2nc(NCCCCCN(C)C)nc(NCCCCCCN(C)C)c2c1` has an inhibition of 1% (SMYD3 (Homo sapiens, UniProt Q9H7B4); enzyme activity, inhibitor, radiometric; 10 µM).
With `O=C(CSc1nnnn1-c1ccccc1)Nc1nsc(-c2ccccc2)n1` the inhibition was 54.2% (srtA (Staphylococcus aureus, UniProt Q2FV99); enzyme activity, inhibitor; 200 µM).
With `CNC(=O)C[C@H](Cc1ccc(C#N)cc1)NC(=O)c1cc(-c2ccc(CN[C@H](C)c3ccc(C)cc3)o2)ccc1Cl` the inhibition was 22% (Oprk1 (Rattus norvegicus, UniProt P34975); agonist response, antagonist; 10 µM; baseline: agonist control).
For `CS(=O)(=O)c1ccc(-c2ccc3ncnc(Nc4ccc(OCc5cccc(F)c5)c(Cl)c4)c3c2)cc1`, the EC50 was 3.9 µM (Leishmania major; intracellular amastigote growth, luciferase; RAW264.7 macrophages).
For `COC(=O)C(C#N)=Cc1ccc(C)o1`, the inhibition was 12% (USP14; enzyme activity, inhibitor; 17 µM).
The ΔTm of `C[n+]1ccc(/C=N/NC(=O)C(=O)N/N=C/c2cc[n+](C)cc2)cc1` is reported as 0.3 ± 0.2 °C (hp2 hairpin duplex DNA; FRET melting; 1 µM, together with: ds26 10 µM).
`Cc1ccc(CNC(=O)C(CCc2ccccc2)NC(=O)C(NC(=O)c2ccc(OCc3ccc(C(C)(C)C)cc3)cc2)C(C)O)cc1` (centres unmarked) has an inhibition of -11% (Neutrophil elastase (ELANE, Homo sapiens, UniProt P08246); enzyme activity, inhibitor; 100 µM).
For `Cc1ccc(C)n1-c1ccc(OCC(=O)O)cc1`, the inhibition was 51.4% (Rac GTPase-activating protein 1; enzyme activity, inhibitor, ADP detection; 20 µM).
With `Cn1ccc2cc(-n3c(=O)[nH]c4sc5c(c4c3=O)CCCC5)ccc21` the inhibition was -11% (SIGMAR1; cell-free assay, radioligand; 10 µM).
With `C#CC[C@@]1(O)C[C@@H](C)N2CCc3cc(OCc4cc(C)cc(C)c4)c(OCc4cc(C)cc(C)c4)cc3[C@H]2C1` the inhibition was 82.5% (Rab GDP dissociation inhibitor beta with Rab1A; GDI2-Rab1A interaction, NanoLuc complementation; 6.25 µM).
The inhibition of `O=C1NNC(c2ccccc2)=N/C1=C\c1ccco1` is reported as 49% (USP14; enzyme activity, inhibitor; 17 µM).
`O=C(Nc1ccc(C(F)F)cc1)[C@H](CC1CCCCC1)Nc1nn2c(=O)ccnc2s1` gave an inhibition of -1% (Low molecular weight phosphotyrosine protein phosphatase, isoform B (ACP1, Homo sapiens, UniProt P24666); enzyme activity, inhibitor; 10 µM, LMPTP-B isoform).
For `O=C(CSc1nnc2c(n1)CCCC2)c1ccc(Cl)cc1`, the inhibition was 52% (USP14; enzyme activity, inhibitor; 17 µM).
`Cc1cc(N2CCOCC2)nc2cc(Cl)ccc12` gave an inhibition of 27.5% (Rac GTPase-activating protein 1; enzyme activity, inhibitor, ADP detection; 20 µM).
The inhibition of `CCn1cc(C(=O)O)c(=O)c2c(N)c(F)c(NC3CCCCC3)cc21` is reported as -4% (PRKAA1 with beta2, gamma1; kinase activity; 0.1 µM, together with: ATP at Km).
For `O=C(NCCCCc1ccccc1)n1c(=O)oc2cc(-c3ccc(F)cc3)ccc21`, the inhibition was -6.1% (PTGS1 (Homo sapiens, UniProt P23219); enzyme activity, inhibitor; 10 µM).

A few entries again:
For `Cc1ccc(C)n1-c1ccc(OCC(=O)O)cc1`, the inhibition was 51.4% (Rac GTPase-activating protein 1; enzyme activity, inhibitor, ADP detection; 20 µM).
With `Cn1ccc2cc(-n3c(=O)[nH]c4sc5c(c4c3=O)CCCC5)ccc21` the inhibition was -11% (SIGMAR1; cell-free assay, radioligand; 10 µM).
